Measurements of several laboratories.
Several values in a cell are separate wells, animals, samples, runs or records. Numbers after ± are the reported error.
RPA1 N-terminal domain: Replication protein A 70 kDa DNA-binding subunit, N-terminal domain (RPA1, Homo sapiens, UniProt P27694)
APP Aβ1-40: Amyloid-beta precursor protein, Aβ1-40 (APP, Homo sapiens, UniProt P05067)
Grm2: Metabotropic glutamate receptor 2 (Grm2, Rattus norvegicus, UniProt P31421)
E3 ubiquitin-protein ligase NEDD4: E3 ubiquitin-protein ligase NEDD4 (Homo sapiens, UniProt P46934)
Lysophospholipase-like protein 1: Lysophospholipase-like protein 1 (Mus musculus, UniProt Q3UFF7)
GRM4: Metabotropic glutamate receptor 4 (GRM4, Homo sapiens, UniProt Q14833)

Protein sequences, listed by entry. Tags and fused reporters are not part of them. Residues count along the entry.
UniProt P05067, whole entry, looked up: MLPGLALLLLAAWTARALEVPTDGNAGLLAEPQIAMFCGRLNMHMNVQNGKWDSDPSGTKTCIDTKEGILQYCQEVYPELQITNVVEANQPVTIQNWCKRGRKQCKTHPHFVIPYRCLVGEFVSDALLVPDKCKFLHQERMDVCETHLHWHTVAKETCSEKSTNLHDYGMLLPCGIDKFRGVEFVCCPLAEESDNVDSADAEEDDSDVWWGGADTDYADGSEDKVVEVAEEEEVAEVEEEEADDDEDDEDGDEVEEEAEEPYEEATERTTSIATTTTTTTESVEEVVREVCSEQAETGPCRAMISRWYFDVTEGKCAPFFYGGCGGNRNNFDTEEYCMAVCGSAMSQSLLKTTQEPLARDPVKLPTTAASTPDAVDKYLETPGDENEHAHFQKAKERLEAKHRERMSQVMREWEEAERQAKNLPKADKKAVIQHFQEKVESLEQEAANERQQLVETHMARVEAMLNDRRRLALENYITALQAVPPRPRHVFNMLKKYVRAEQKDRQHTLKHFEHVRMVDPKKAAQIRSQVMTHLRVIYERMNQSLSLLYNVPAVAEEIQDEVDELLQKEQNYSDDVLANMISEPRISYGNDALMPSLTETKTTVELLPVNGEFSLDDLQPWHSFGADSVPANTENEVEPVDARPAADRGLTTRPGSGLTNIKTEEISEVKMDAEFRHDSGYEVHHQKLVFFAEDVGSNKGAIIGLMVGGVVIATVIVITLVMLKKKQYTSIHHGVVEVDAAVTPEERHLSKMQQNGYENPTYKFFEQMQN
UniProt P05067, 672-713 limits assumed: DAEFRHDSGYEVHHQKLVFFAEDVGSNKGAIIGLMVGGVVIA
UniProt P31421, 19-872 limits assumed: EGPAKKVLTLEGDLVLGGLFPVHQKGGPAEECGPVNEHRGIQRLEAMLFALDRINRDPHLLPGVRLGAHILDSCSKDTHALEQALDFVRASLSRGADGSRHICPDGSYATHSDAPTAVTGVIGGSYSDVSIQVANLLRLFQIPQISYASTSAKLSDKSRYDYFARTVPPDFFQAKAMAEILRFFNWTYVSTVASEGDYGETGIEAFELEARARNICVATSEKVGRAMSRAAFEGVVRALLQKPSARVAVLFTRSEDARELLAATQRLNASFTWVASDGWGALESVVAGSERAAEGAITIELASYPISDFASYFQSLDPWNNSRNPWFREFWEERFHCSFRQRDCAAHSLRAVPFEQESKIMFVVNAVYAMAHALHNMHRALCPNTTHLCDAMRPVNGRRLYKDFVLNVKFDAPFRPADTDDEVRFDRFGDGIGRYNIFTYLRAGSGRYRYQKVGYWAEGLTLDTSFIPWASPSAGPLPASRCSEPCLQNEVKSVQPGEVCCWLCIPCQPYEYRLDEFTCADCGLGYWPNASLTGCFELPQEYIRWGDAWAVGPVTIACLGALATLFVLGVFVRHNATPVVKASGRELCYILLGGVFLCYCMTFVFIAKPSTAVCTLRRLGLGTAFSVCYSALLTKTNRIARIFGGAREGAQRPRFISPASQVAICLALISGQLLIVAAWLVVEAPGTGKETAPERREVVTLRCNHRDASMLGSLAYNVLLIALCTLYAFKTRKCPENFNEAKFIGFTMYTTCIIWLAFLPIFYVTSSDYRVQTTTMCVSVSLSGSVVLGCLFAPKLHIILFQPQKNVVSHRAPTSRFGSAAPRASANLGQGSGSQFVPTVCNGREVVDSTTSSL
UniProt P46934, whole entry, looked up: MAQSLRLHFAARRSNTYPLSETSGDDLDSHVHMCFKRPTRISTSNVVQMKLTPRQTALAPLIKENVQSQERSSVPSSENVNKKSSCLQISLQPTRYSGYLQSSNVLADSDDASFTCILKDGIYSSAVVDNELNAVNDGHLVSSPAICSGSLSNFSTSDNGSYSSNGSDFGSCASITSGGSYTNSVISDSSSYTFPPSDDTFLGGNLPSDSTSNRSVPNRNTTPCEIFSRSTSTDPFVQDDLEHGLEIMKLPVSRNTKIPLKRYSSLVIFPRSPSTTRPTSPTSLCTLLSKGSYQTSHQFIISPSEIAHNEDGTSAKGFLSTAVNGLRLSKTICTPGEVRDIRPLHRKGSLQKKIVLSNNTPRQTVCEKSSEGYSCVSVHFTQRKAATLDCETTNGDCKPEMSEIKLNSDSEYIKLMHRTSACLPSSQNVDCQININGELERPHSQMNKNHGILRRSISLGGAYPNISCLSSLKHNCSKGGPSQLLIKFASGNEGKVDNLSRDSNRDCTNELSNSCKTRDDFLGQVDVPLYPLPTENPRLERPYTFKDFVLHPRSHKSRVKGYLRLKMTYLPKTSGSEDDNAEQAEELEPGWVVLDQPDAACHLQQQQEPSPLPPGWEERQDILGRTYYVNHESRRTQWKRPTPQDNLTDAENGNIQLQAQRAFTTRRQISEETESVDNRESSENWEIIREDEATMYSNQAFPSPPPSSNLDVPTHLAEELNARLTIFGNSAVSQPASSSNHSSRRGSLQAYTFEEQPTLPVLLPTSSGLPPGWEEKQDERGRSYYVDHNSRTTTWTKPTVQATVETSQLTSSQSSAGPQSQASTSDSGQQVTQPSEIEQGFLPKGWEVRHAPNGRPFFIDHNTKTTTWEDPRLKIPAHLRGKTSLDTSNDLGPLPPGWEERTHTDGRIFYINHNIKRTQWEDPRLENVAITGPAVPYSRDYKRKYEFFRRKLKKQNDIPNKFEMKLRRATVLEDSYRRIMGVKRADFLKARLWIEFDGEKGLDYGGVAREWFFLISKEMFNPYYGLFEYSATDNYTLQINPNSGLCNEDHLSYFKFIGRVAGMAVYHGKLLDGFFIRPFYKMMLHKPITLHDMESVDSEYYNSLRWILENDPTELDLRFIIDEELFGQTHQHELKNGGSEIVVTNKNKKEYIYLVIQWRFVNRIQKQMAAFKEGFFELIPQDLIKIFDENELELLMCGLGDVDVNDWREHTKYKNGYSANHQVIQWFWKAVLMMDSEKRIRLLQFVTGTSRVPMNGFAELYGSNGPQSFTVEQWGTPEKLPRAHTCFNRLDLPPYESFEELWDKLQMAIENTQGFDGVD
UniProt Q14833, 33-912 limits assumed: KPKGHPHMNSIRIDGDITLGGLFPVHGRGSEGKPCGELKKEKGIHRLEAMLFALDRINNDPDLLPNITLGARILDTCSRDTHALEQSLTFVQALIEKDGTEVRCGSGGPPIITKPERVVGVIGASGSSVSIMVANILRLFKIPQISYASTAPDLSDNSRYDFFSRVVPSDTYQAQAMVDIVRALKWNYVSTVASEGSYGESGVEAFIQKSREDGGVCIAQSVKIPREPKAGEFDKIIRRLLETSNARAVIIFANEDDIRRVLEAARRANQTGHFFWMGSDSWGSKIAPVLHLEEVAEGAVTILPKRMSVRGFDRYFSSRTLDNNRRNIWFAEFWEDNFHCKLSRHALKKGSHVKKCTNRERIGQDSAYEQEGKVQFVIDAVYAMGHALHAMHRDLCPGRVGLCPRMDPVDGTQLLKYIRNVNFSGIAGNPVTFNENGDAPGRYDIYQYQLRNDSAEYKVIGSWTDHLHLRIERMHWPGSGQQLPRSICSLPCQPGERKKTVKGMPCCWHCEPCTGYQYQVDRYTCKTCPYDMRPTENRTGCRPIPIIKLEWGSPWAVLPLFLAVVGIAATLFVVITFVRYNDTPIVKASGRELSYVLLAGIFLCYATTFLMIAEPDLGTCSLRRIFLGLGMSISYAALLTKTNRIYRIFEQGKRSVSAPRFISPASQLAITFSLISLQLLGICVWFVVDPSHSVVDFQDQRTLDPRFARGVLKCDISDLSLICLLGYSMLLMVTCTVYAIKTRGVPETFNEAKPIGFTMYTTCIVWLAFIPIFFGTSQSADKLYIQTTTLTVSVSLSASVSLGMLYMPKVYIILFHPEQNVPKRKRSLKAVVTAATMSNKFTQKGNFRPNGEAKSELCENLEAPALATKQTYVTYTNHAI
UniProt Q9BY41, whole entry: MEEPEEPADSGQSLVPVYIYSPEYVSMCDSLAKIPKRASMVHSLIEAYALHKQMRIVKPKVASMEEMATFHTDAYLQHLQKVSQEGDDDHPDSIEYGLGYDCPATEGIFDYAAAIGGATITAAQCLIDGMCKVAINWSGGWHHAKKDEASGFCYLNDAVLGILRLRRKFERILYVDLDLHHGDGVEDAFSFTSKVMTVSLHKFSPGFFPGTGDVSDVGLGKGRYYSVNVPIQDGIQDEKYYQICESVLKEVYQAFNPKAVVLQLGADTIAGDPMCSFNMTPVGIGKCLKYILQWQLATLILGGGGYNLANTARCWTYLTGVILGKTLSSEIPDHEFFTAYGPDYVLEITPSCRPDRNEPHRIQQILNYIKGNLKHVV
UniProt Q9UDY8, 329-566 limits assumed: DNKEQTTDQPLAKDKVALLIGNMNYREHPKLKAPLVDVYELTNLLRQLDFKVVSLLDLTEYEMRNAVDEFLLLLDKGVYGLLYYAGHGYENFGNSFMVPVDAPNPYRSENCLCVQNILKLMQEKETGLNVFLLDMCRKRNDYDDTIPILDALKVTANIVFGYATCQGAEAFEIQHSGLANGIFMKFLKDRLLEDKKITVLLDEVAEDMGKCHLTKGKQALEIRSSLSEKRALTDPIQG
UniProt P30291, whole entry: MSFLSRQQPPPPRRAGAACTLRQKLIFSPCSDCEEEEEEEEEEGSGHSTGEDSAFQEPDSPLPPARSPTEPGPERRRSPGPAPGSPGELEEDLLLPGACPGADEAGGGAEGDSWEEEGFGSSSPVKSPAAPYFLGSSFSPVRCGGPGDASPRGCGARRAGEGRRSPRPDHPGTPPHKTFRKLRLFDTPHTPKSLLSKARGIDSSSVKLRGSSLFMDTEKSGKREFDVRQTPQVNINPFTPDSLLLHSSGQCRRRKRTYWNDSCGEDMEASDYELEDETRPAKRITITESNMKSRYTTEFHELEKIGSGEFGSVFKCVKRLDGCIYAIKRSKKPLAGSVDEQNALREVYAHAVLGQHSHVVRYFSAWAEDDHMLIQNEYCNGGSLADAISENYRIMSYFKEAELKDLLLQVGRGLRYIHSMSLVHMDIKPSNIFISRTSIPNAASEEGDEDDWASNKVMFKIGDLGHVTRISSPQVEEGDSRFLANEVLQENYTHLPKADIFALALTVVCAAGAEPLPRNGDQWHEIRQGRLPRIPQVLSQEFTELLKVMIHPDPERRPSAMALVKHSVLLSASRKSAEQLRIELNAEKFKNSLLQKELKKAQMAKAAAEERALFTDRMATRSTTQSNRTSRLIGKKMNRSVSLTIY
UniProt Q9GZT9, whole entry: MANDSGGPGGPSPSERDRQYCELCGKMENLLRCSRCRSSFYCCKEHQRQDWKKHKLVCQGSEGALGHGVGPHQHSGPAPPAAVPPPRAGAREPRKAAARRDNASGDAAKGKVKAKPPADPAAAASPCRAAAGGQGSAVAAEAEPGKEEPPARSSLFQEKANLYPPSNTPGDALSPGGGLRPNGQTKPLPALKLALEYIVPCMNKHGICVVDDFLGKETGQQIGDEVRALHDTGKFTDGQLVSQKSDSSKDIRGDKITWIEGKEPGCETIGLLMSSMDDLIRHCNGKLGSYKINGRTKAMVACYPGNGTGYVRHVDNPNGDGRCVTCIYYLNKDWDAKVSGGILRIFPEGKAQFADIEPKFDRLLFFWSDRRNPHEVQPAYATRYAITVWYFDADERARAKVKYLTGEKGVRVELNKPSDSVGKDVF
UniProt O60502, whole entry: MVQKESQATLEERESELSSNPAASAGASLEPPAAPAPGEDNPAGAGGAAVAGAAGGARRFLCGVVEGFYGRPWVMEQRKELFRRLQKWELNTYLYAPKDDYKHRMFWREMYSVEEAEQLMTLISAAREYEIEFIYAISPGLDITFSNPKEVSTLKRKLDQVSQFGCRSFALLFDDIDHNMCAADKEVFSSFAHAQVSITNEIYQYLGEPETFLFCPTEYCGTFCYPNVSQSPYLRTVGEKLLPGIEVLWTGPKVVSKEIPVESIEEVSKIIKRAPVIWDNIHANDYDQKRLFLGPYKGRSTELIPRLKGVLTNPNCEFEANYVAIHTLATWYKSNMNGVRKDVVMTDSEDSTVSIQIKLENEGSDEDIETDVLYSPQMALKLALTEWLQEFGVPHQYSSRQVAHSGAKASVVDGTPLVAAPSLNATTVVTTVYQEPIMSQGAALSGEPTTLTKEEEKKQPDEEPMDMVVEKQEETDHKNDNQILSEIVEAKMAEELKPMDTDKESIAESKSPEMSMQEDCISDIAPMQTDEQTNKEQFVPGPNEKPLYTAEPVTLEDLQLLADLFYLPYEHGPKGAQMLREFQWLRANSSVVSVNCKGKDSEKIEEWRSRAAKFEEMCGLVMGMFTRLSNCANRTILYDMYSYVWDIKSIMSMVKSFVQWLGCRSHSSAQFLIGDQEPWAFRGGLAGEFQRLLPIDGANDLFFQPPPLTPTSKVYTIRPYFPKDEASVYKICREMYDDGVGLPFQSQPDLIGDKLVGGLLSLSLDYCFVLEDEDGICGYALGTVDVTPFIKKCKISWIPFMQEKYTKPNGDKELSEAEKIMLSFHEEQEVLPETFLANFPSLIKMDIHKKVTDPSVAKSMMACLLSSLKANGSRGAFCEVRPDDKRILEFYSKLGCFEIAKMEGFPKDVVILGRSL

CC(=O)NCCCC[C@H](NC(=O)CNC(=O)[C@H](CCCNC(=N)N)NC(C)=O)C(=O)Nc1ccc2c(C)cc(=O)oc2c1
kcat/KM (HDAC8 (Homo sapiens, UniProt Q9BY41); deacetylation, substrate; 25 °C, added: 150 nM enzyme): 23 ± 6 M⁻¹ s⁻¹

CCN(CC)c1ccc2c(-c3ccccc3C(=O)N(C)CCCC(=O)N[C@@H](CC(C)C)C(=O)N[C@@H](CCCNC(=N)N)C(=O)N[C@@H](CCCNC(=N)N)C(=O)N[C@@H](C)C(=O)N[C@@H](CO)C(=O)N[C@@H](CC(C)C)C(=O)NCC(=O)O)c3ccc(=[N+](CC)CC)cc-3oc2c1
conversion (PRKACA (Homo sapiens, UniProt P17612); substrate, HPLC-Vis, large-scale reaction; 100 µM, 1 h, pH 7.4, 25 °C, 10 mM MgCl2, added: ATP 1 mM, PKACα 4 nM): ~80%

Cc1ccc(C(=O)Nc2ccccc2C(=O)O)cc1S(=O)(=O)N[C@H]1CC[C@H](C)CC1 (relative stereo)
ligand efficiency (RPA1 N-terminal domain; binding, fluorescence polarisation competition; added: FITC-ATRIP probe): 0.2

O=C(O)c1cc(C(=O)N[C@@H](Cc2c[nH]c3ccccc23)C(=O)O)cc([C@H]2CCN[C@@H]2C(=O)O)c1
specific binding (Glutamate receptor ionotropic, kainate 1 (Rattus norvegicus, UniProt P22756); radioligand binding; Sf9 membranes; 10 µM, homomeric receptor, added: [3H]SYM2081): 72 ± 3%

COc1ccc2[nH]cc(CCc3ccccc3)c2c1
inhibition (APP Aβ1-40; Aβ40 aggregation, thioflavin T fluorescence; 25 µM): 0%

CC(=O)N[C@@H](CC(C)C)C(=O)N[C@@H](CCCNC(=N)N)C(=O)N[C@@H](CO)C(=O)N[C@@H](CCCNC(=N)N)C(=O)Nc1ccc2c(C)cc(=O)oc2c1
kcat/Km (MALT1 (Homo sapiens, UniProt Q9UDY8); substrate, fluorogenic peptide hydrolysis; pH 7.5, catalytic domain 285 or 294 nM): 2900 M⁻¹ s⁻¹

CC(=O)N[C@@H](CCC(N)=O)C(=O)N[C@H](C(=O)N[C@@H](C)C(=O)N[C@@H](CCCNC(=N)N)C(=O)N[C@@H](CCCCNC(=O)CCc1ccc(N=Nc2ccc(N(C)C)cc2)cc1)C(=O)N[C@@H](CO)C(=O)N[C@H](C(=O)NCC(=O)NCC(=O)NCCCNC(=S)Nc1ccc2c(c1)C(=O)OC21c2ccc(O)cc2Oc2cc(O)ccc21)[C@@H](C)O)[C@@H](C)O
kcat (SIRT3 (Homo sapiens, UniProt Q9NTG7); enzyme activity, substrate, plate reader kinetics; 60 nM enzyme, added: 500 µM NAD+): 0.0019 ± 3e-05 s⁻¹

NC(=O)c1cn(-c2ccc(F)cc2)c2ccc(CCc3ccccc3)cc2c1=O
response (Grm2; calcium mobilization, negative allosteric modulator; 30 µM, added: glutamate 100 µM; baseline: glutamate maximum): 2.07 ± 1.38%

CC(=NN=c1[nH]c2cc(F)c(F)cc2n1C)c1ccc(F)cn1
protein level (Nuclear receptor coactivator 3 (Homo sapiens, UniProt Q9Y6Q9); Western blot, measured: Nuclear receptor coactivator 3; MCF7; concentration not given): decreased

CN(C)C(=O)CCC(C(=O)/C=C/c1ccc(O)c(OC(F)(F)F)c1)C(=O)/C=C/c1ccc(O)c(OC(F)(F)F)c1
Aβ band density (APP (Homo sapiens, UniProt P05067); SDS-PAGE western blot, measured: Aβ1-42 species 75-200 kDa; 30 µM, 24 h, 37 °C, added: Aβ 10 µM; baseline: DMSO control): 570 ± 231%

COC(=O)[C@@]1(C)C=C(C(=O)Nc2cccc(C(=O)NC34CC(Nc5nccc(-c6cccnc6)n5)(C3)C4)c2)C(=O)CC1
remaining activity (MAPK9 (Homo sapiens, UniProt P45984); enzyme activity, inhibitor; 0.1829 µM): 0.262 fraction of control

CCOC(=O)/C=C/CNCCCN1c2ccccc2CCc2ccc([N+](=O)[O-])cc21
ubiquitination TR-FRET signal AUC (E3 ubiquitin-protein ligase NEDD4; inhibitor, Ub-TR-FRET; 33.33 µM, 1 h preincubation, HECT domain, added: ATP 2 mM; higher = more ubiquitination): 29600 a.u. and 29100 a.u. and 41600 a.u.

O=C1CCC(N2Cc3cc(-c4nc5ccccn5c4NC45CC6CC(CC(C6)C4)C5)ccc3C2=O)C(=O)N1 (centres unmarked)
Dmax (WEE1/CRBN (Homo sapiens, UniProt P30291+Q96SW2); degrader, HiBiT; Jurkat; 5 h): > 98%

Cc1ccccc1Nc1ncnc2onc(-c3ccc(Cl)cc3)c12
iodide influx rate (CFTR (Homo sapiens, UniProt P13569, del508-508); FRT expressing ΔF508-CFTR; baseline: DMSO): 103 µM/s

Nc1nc(NCc2ccc(Cl)cc2)nn1S(=O)(=O)c1cccc2ccccc12
probe labelling (Lysophospholipase-like protein 1; activator, gel-based ABPP FP-rhodamine; baseline: DMSO): 1.2 fold

O=C(OC(C(F)(F)F)C(F)(F)F)N1Cc2cccc(Br)c2C1
activity (FAAH (Homo sapiens, UniProt O00519); enzyme activity, inhibitor, fluorescence AAMCA substrate; 1 µM): inactive

CCOC(=O)/C=C/CNCCCCN1c2ccccc2CCc2ccc(Cl)cc21
ubiquitination TR-FRET signal AUC (E3 ubiquitin-protein ligase NEDD4; inhibitor, Ub-TR-FRET; 100 µM, 1 h preincubation, HECT domain, DMSO up to 2%, added: ATP 2 mM; higher = more ubiquitination): 16500 a.u.

CCOc1ccccc1Nc1nnc(SCC(=O)Nc2cc(F)ccc2F)s1
onset of luminescence reduction (CD28, with CD86 (Homo sapiens, UniProt P10747); NanoBiT complementation; CHO-K1; 100 µM): 30 min

COc1ccc(NC(=O)CN2CCCN(S(=O)(=O)c3ccsc3)CC2)c(OC)c1
maximal response (GRM4; calcium mobilization, positive allosteric modulator; CHO cells with Gqi5; added: glutamate; baseline: PHCCC maximal response): 35 ± 3.3%

CC(C)(Cn1cc(CNC(=O)Cc2ccccc2)nn1)c1c[nH]c2ccccc12
Emax (GLP1R (Homo sapiens, UniProt P43220); cAMP accumulation, positive allosteric modulator, HTRF; 0.6 µM, purified compound, added: GLP-1(9-36) at EC20; baseline: BETP): 98 ± 2%

CCc1ccc(NC(=O)c2ccc(C)c(S(=O)(=O)Nc3ccc(Br)cc3)c2)c(C(=O)O)c1
ligand efficiency (RPA1 N-terminal domain; binding, fluorescence polarisation competition; added: FITC-ATRIP probe): 0.22

Cc1ccccc1Nc1c(C(=O)O)ccnc1C(=O)O
remaining activity (Egl nine homolog 1 (EGLN1, Homo sapiens, UniProt Q9GZT9); inhibitor, HTRF; 400 µM): 100%

NC(=O)c1cn(-c2ccc(F)cc2)c2ccc(CN3CCN(CC(F)(F)F)CC3)cc2c1=O
response (Grm2; calcium mobilization, negative allosteric modulator; 30 µM, added: glutamate 100 µM; baseline: glutamate maximum): 1.1 ± 0.07%

CCOC(=O)/C=C/CNCCCN1c2ccccc2CCc2ccc(Br)cc21
ubiquitination TR-FRET signal AUC (E3 ubiquitin-protein ligase NEDD4; inhibitor, Ub-TR-FRET; 11.11 µM, 1 h preincubation, HECT domain, added: ATP 2 mM; higher = more ubiquitination): 61400 a.u. and 47400 a.u. and 48800 a.u.

COc1ccc2[nH]cc(/C=C/c3ccc(NS(C)(=O)=O)cc3)c2c1
inhibition (APP Aβ1-40; Aβ40 aggregation, thioflavin T fluorescence; 25 µM): 42%

C[C@H](NC(=O)[C@H](CCCCN)NC(=O)CNC(=O)CNC(=O)[C@@H](NC(=O)[C@@H](NC(=O)[C@H](Cc1c[nH]c2ccccc12)NC(=O)c1ccccc1N)[C@@H](C)O)[C@@H](C)O)C(=O)N[C@@H](CCCCNc1ccc([N+](=O)[O-])cc1[N+](=O)[O-])C(N)=O
kcat (Mitochondrial intermediate peptidase (MIPEP, Homo sapiens, UniProt Q99797); substrate, FRET peptide hydrolysis): 0.0033 s⁻¹

CC(=O)N1CCN(c2ccc(Nc3ncc4c(n3)N(C)C(=O)N(c3cc(NC(=O)c5ccc(CN6CCC(N(C)C)C6)c(C(F)(F)F)c5)ccc3C)C4)cn2)CC1 (centres unmarked)
potency ratio (FGFR4/Transcription factor ETV6 (Homo sapiens, UniProt P22455+P41212, V550E); cell proliferation, inhibitor; Ba/F3 TEL-FGFR4 V550E; baseline: compound over BLU9931, higher = more potent): 80 fold

CC(=O)Nc1ncc(CN2CC[C@H](Oc3cccc(F)n3)C[C@@H]2C)s1 [isotope labelled]
Bmax (Protein O-GlcNAcase (OGA, Homo sapiens, UniProt O60502); saturation binding; human cerebellum homogenate; radiolabelled compound): 1.7 ± 0.9 nM

Cn1c(=O)oc2ccc(S(=O)(=O)n3nc(SCc4ccc(Cl)cc4)nc3N)cc21
activation (Lysophospholipase-like protein 1; activator, gel-based ABPP, FP-rhodamine; HEK293 overexpressing Lysophospholipase-like protein 1; 10 µM): 78%

Nc1ncnc2c1ccn2[C@@H]1O[C@H](COc2ccc3cc(Br)cnc3c2)[C@@H](O)[C@H]1O
dissociation rate constant (Protein arginine N-methyltransferase 5, with MEP50 (PRMT5, Homo sapiens, UniProt O14744); binding, surface plasmon resonance): 0.0114 s⁻¹

O=C(Nc1ccc(F)cc1)C12CC1/C(=N\O)c1cc(Cl)ccc1O2 (centres unmarked)
fold shift of glutamate EC50 (GRM4; positive allosteric modulator, calcium mobilization; CHO expressing Gqi5; 30 µM, added: glutamate concentration-response; baseline: glutamate alone, leftward shift): 1.8 ± 0.2 fold

COC(=O)[C@@]1(C)C=C(C(=O)OCc2cccc(C(=O)Nc3ccc(Nc4nccc(-c5cccnc5)n4)c(C)c3)c2)C(=O)CC1
kon (MAPK8 (Homo sapiens, UniProt P45983, C116S); surface plasmon resonance; 100, 300, 1000 nM, 1:1 binding model): 390000 M⁻¹ s⁻¹

Repeated from above:
COc1ccc2[nH]cc(/C=C/c3ccc(NS(C)(=O)=O)cc3)c2c1
inhibition (APP Aβ1-40; Aβ40 aggregation, thioflavin T fluorescence; 25 µM): 42%

C[C@H](NC(=O)[C@H](CCCCN)NC(=O)CNC(=O)CNC(=O)[C@@H](NC(=O)[C@@H](NC(=O)[C@H](Cc1c[nH]c2ccccc12)NC(=O)c1ccccc1N)[C@@H](C)O)[C@@H](C)O)C(=O)N[C@@H](CCCCNc1ccc([N+](=O)[O-])cc1[N+](=O)[O-])C(N)=O
kcat (Mitochondrial intermediate peptidase (MIPEP, Homo sapiens, UniProt Q99797); substrate, FRET peptide hydrolysis): 0.0033 s⁻¹
